Measured values of several laboratories.
Parts stem from different laboratories: compare values within a part only. Values joined by “and” are separate records of one study, mostly repeats; a detail may differ.
Sequence of UniProt Q16816 (whole entry, looked up): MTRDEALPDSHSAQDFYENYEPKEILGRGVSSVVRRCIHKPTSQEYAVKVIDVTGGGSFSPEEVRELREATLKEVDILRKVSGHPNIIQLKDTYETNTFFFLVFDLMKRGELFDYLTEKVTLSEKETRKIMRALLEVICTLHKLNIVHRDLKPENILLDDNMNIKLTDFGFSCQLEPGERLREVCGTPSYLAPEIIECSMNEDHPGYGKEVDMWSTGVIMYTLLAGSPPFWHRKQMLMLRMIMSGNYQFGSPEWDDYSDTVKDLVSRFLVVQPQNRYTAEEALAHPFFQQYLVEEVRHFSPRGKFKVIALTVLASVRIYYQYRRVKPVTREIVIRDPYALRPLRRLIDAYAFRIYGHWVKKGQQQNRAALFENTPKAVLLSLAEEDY
Sequence of UniProt Q04912 (whole entry, looked up): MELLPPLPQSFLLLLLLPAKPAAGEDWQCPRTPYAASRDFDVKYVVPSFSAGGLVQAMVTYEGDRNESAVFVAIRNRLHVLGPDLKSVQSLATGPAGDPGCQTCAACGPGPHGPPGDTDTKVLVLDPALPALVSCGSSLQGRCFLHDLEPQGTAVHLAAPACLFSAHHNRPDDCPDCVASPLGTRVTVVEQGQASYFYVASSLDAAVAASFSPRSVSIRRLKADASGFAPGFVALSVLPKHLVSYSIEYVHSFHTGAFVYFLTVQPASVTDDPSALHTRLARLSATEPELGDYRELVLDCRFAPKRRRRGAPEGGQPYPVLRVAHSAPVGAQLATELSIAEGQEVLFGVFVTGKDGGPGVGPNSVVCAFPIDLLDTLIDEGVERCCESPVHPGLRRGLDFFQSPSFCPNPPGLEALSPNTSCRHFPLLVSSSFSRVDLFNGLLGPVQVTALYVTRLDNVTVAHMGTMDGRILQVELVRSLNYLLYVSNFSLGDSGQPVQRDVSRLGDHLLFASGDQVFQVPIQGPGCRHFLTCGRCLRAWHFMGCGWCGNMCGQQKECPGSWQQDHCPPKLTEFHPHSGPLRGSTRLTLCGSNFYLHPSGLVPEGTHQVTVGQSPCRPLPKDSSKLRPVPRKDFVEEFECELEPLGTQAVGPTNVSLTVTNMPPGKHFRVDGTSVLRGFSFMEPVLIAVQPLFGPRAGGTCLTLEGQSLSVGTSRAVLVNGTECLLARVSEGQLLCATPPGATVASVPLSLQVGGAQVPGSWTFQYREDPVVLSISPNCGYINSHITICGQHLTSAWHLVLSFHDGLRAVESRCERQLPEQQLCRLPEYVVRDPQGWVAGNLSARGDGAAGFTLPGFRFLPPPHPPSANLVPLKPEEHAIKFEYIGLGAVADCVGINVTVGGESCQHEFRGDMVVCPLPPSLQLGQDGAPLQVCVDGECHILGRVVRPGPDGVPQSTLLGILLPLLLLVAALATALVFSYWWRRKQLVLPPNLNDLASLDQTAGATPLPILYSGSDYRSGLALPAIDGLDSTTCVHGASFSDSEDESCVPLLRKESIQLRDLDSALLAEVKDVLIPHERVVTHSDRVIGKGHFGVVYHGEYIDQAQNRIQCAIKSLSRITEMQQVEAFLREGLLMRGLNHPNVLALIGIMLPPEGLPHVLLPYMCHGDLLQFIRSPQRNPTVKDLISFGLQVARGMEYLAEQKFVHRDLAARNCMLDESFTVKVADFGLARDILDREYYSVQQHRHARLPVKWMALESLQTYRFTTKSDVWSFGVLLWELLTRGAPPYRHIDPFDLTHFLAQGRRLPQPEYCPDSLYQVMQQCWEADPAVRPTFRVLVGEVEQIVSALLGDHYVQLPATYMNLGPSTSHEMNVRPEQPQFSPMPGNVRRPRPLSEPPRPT
Sequence of UniProt P09619 (whole entry, looked up): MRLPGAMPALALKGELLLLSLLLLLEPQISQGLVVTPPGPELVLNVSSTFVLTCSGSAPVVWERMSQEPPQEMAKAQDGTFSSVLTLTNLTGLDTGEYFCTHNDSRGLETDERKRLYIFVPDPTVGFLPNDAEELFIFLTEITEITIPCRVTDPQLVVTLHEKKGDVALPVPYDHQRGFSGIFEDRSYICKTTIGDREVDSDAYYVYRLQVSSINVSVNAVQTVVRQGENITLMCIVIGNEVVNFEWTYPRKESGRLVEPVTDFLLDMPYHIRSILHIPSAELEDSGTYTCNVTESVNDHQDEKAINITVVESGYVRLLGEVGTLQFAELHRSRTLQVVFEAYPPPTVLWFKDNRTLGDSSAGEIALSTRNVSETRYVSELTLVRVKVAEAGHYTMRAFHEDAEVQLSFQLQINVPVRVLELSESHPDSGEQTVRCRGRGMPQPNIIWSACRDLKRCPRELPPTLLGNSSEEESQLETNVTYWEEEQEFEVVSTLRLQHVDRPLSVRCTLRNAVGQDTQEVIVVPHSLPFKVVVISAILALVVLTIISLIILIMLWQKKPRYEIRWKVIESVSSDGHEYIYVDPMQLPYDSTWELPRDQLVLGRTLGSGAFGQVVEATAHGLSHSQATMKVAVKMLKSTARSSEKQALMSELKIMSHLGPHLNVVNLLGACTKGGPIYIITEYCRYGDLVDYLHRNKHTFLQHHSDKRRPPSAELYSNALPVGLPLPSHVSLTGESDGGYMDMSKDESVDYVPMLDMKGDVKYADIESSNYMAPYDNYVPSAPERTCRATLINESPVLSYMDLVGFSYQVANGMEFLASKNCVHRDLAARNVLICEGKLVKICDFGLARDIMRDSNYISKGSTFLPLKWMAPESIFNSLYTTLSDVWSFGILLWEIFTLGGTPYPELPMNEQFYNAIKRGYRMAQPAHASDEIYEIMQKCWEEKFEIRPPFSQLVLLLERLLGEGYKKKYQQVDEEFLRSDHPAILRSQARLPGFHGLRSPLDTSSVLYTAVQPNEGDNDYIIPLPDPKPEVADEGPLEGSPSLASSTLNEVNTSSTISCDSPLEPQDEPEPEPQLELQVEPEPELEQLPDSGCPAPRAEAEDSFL
Sequence of UniProt O14733 (whole entry, looked up): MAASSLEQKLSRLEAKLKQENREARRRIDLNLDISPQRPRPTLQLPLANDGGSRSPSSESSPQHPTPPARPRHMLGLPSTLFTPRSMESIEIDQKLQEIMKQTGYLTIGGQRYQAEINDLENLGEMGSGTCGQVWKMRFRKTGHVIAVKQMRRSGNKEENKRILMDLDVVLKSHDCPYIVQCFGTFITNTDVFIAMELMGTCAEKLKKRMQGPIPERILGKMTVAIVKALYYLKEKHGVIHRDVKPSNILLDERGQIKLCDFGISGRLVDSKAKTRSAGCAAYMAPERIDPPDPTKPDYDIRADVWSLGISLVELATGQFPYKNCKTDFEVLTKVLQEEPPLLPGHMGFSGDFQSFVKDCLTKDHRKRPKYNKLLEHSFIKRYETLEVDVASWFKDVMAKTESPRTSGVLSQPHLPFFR
Sequence of UniProt Q13555 (whole entry, looked up): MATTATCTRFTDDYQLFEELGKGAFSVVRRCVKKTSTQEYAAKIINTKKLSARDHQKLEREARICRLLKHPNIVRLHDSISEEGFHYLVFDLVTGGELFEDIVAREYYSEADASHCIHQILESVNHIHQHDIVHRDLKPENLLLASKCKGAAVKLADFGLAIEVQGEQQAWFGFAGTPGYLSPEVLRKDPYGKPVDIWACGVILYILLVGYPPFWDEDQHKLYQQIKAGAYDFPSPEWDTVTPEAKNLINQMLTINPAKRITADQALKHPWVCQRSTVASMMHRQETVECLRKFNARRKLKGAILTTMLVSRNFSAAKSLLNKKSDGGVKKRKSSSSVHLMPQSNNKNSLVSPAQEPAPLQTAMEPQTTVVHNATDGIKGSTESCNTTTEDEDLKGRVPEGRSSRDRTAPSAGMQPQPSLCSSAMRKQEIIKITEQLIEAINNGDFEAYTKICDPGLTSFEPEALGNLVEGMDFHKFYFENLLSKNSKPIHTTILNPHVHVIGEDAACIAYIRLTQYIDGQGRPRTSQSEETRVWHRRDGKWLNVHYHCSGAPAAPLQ
Sequence of UniProt Q9NYY3 (whole entry, looked up): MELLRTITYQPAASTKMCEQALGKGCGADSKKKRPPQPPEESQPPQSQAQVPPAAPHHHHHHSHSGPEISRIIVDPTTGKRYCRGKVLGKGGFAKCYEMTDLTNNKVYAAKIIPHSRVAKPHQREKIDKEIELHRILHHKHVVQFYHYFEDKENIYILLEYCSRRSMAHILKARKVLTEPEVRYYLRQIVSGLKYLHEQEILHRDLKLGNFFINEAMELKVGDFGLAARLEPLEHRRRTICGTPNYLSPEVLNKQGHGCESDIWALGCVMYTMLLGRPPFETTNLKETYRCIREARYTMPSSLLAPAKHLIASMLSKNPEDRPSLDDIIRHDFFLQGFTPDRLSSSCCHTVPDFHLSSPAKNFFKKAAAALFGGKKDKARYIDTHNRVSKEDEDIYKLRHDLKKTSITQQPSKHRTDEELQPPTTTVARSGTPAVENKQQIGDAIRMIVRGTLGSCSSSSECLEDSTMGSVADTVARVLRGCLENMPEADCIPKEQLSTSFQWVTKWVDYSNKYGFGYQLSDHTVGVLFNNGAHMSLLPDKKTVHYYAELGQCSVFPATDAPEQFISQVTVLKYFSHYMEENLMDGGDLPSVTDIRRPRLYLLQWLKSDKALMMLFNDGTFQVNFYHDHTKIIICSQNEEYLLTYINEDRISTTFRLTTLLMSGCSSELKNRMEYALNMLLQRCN

Set 1 — observed: enzyme activity; action: inhibitor; concentration: 0.5 µM; reference: control
Target: Serine/threonine-protein kinase 4 (STK4, Homo sapiens, UniProt Q13043)
Residues (Q13043 1-487): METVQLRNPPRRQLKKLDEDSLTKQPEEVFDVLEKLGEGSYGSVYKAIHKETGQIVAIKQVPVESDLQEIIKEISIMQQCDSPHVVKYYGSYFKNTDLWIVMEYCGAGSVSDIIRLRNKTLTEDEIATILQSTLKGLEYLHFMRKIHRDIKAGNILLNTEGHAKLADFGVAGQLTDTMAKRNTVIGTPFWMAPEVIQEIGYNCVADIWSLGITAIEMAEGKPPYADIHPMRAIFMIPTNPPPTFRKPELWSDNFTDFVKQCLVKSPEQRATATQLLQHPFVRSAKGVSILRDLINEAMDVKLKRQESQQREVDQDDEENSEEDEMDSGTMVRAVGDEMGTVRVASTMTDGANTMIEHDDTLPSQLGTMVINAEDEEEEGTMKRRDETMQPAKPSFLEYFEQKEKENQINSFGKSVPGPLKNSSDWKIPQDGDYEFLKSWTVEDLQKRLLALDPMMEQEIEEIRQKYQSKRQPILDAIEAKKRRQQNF
SMILES	remaining activity [%]
CC(C)N(CCC(=O)c1ccc2ccccc2c1)Cc1ccccc1	92.5
Nc1nc(Nc2ccc(S(N)(=O)=O)cc2)nn1C(=S)Nc1c(F)cccc1F	2.16
O=C(O)/C=C/c1cc(Br)c(Br)c(Br)c1Br	102
N#CC(c1ccnc(NCCc2cccnc2)n1)c1nc2ccccc2s1 (stereo not drawn)	92.2
c1cc(-c2cnn3cc(-c4ccc(OCCN5CCCCC5)cc4)cnc23)ccn1	86.8
O=C1NC(=O)/C(=C/c2ccc3c(c2)OC(F)(F)O3)S1	93.3
C[C@@H](N)[C@H]1CC[C@H](C(=O)Nc2ccncc2)CC1	92.4
NC(=O)c1cccc(-c2cc(Nc3ccc(OC(F)(F)F)cc3)ncn2)c1	88.7
Clc1ccc(Nc2nnc(Cc3ccncc3)c3ccccc23)cc1	105
FC(F)(F)c1ccc(/C=C/c2nc(COc3ccc(CCCCn4ccnn4)cc3)co2)cc1	97.5
NC(=O)c1ccc(-c2nc(-c3ccc4c(c3)OCCO4)c(-c3ccccn3)[nH]2)cc1	104
O=Nc1c(-c2c(O)[nH]c3ccccc23)[nH]c2ccccc12	18.8
CC(C)(C)c1nc2c3cc[nH]c(=O)c3c3cc(F)ccc3c2[nH]1	6.84
CC(C)n1cnc2c(Nc3cccc(Cl)c3)nc(NCCO)nc21	93.1
CNc1cc2c(Nc3cccc(Br)c3)ncnc2cn1	95.4
O=C(c1ccccc1)c1ccc(N2CCOCC2)cc1O	103
O=c1c(-c2ccc(F)cc2)c(-c2ccncc2)[nH]n1-c1ccc(Cl)cc1	90
CCN(CC)CCCCN1c2ccccc2Oc2ccc(Cl)cc21	98.9
CCCCc1c(-c2ccc(O)cc2)[nH]c2nccnc12	78.3
N#C/C(=C(/N)SC1C=CC=CC1)c1cccc(C(O)c2ccncc2)c1 (stereo not drawn)	87.2
COc1cc2c(Nc3ccc(Br)cc3F)ncnc2cc1OCC1CCN(C)CC1	103
COc1cc2c(N3CCN(C(=O)Nc4ccc(OC(C)C)cc4)CC3)ncnc2cc1OCCCN1CCCCC1	96.2
O=C1c2ccccc2-c2nc3nnnn3nc21	87.8

Set 2 — action: inhibitor; concentration: 1 µM
Structure (SMILES): C=CC(=O)N1CCC[C@@H](n2nc(-c3ccc(Oc4ccccc4)cc3)c3c(N)ncnc32)C1
target	assay	inhibition [%]
MAPK14 (Homo sapiens, UniProt Q16539)	enzyme activity	7
CAMK2G (Homo sapiens, UniProt Q13555)	enzyme activity	0
CSNK1G3 (Homo sapiens, UniProt Q9Y6M4)	enzyme activity	2
MARK3 (Homo sapiens, UniProt P27448)	enzyme activity	7
MAP2K7 (Homo sapiens, UniProt O14733)	enzyme activity	98
PHKG1 (Homo sapiens, UniProt Q16816)	enzyme activity	17
MST1R (Homo sapiens, UniProt Q04912)	enzyme activity	8
BUB1 (Homo sapiens, UniProt O43683)	enzyme activity	1
CSK (Homo sapiens, UniProt P41240)	–	88
PDGFRB (Homo sapiens, UniProt P09619)	enzyme activity	59
EPHA3 (Homo sapiens, UniProt P29320)	enzyme activity	11
PRKCD (Homo sapiens, UniProt Q05655)	enzyme activity	3
Ribosomal protein S6 kinase alpha-4, C-terminal kinase domain (RPS6KA4, Homo sapiens, UniProt O75676)	–	1
PLK2 (Homo sapiens, UniProt Q9NYY3)	enzyme activity	10
WNK1 (Homo sapiens, UniProt Q9H4A3)	enzyme activity	23
CDC42BPB (Homo sapiens, UniProt Q9Y5S2)	enzyme activity	1
Myosin-IIIb (MYO3B, Homo sapiens, UniProt Q8WXR4)	enzyme activity	28

Set 3 — observed: ligand displacement; concentration: 10 µM
Target: Muscarinic acetylcholine receptor M4 (CHRM4, Homo sapiens, UniProt P08173)
Sequence of UniProt P08173 (whole entry, looked up): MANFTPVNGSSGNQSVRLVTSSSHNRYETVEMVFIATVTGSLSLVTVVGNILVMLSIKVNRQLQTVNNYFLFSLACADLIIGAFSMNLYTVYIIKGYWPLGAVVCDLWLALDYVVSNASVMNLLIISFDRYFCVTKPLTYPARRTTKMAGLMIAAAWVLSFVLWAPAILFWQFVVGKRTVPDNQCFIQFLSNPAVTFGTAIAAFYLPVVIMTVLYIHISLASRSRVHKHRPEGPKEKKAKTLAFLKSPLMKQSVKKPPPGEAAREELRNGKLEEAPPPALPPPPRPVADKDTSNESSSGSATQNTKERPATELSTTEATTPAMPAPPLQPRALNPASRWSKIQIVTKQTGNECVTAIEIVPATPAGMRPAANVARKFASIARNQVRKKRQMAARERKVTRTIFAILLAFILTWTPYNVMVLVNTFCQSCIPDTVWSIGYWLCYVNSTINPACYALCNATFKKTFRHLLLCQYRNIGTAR
SMILES	inhibition [%]
CCOc1ccc(S(=O)(=O)Nc2ccc(Cl)cc2C#Cc2cnc(C(=O)O)cc2OC)c2ncccc12	4.24
O=c1nc(-c2ccccn2)sc2ccccc12	-12
CN1CCN(c2cnc3c(C4CCN(C(=O)c5ccc(OC(F)(F)F)cc5N)CC4)ncnc3c2)CC1	-13.1
O=C(N[C@H]1CCCCC/C=C\C2C[C@@]2(C(=O)O)NC(=O)[C@@H]2C[C@@H](Oc3ccncc3)CN2C1=O)OC1CCCC1 (stereo partly drawn)	9.48
Cc1cc(Nc2nccc(C)n2)cc(-c2cnc([C@@]3(O)CC[C@H](C(=O)O)C(C)(C)C3)s2)c1	16.7
NC(=O)c1ccc2nc(-c3ccc(C4(N)CCC4)cc3)c(-c3ccccc3)n2n1	12.4
CN([C@@H]1CCc2c(CC(=O)O)c3ccccc3n2C1)S(=O)(=O)c1ccc(F)cc1	24.4
O=C(NS(=O)(=O)c1ccc(NCC2CCOCC2)c([N+](=O)[O-])c1)c1ccc(N2CCN(Cc3ccc(C(F)(F)F)cc3-c3ccc(Cl)cc3)CC2)cc1Oc1cnc2[nH]ccc2c1	-5.79
Cc1c(NC(=O)c2cc(C(N)=O)nc3cc(F)ccc23)c(C(F)(F)F)nn1Cc1ccc(C#N)cc1	-4.15
COc1cc(N[C@@H]2CCCC[C@]2(O)C(F)(F)F)ccc1F	-3.95
C[C@H](c1ccc(F)cc1)N(Cc1cccc(C(=O)O)c1)C(=O)c1cnc2ccccc2c1	-13.1
O=C(Nc1ccc(Oc2ccc(F)cc2)cc1)N1CCc2ncccc2[C@H]1c1ccc(F)cc1	9.29
COc1cc(-c2cn(C3CCc4c(F)cccc4N(CC(F)(F)F)C3=O)nn2)ccc1-n1cnc(C)c1 (stereo not drawn)	26.2
CN(C)C(=O)c1sc2nc(N3CCC(S(C)(=O)=O)CC3)cc(C(F)(F)F)c2c1N	3.63
CC(=O)N1CCC(c2ccc(C(=O)NC3=NCCN3)cc2C(F)(F)F)CC1	19.9
CCC(F)(F)c1cc(N2CCC(S(C)(=O)=O)CC2)nc2sc(C(N)=O)c(N)c12	13.3
COCCOc1nc(-c2ccc(Cl)nc2)nc2c1CN(C(=O)c1ncn3ccccc13)CC2	2

Set 4 — Structure (SMILES): CCOc1ccc(Nc2c3c(nc4ccccc24)CCC3)cc1
cell line	assay	conditions	cytotoxicity
HepG2	resazurin	0.066 µM, 48 h	0%
HepG2	resazurin	0.0066 µM, 48 h	3% and 2%
HEK293	resazurin	0.166 µM, 10% serum	2% and 1%
HEK293	resazurin	0.00332 µM, 10% serum	2% and -4%
HepG2	resazurin	33.32 µM, 48 h	87% and 89%
PMA-differentiated THP-1 macrophages	–	8 µM, 64 h	10% and 22%
HepG2	resazurin	16.66 µM, 48 h	71%
HEK293	resazurin	33.32 µM, 10% serum	85% and 81%
HEK293	resazurin	1.66 µM, 10% serum	7% and 11%

Excerpt of the above (set 1):
SMILES	remaining activity [%]
CC(C)(C)c1nc2c3cc[nH]c(=O)c3c3cc(F)ccc3c2[nH]1	6.84
CNc1cc2c(Nc3cccc(Br)c3)ncnc2cn1	95.4
NC(=O)c1cccc(-c2cc(Nc3ccc(OC(F)(F)F)cc3)ncn2)c1	88.7
CC(C)n1cnc2c(Nc3cccc(Cl)c3)nc(NCCO)nc21	93.1
COc1cc2c(Nc3ccc(Br)cc3F)ncnc2cc1OCC1CCN(C)CC1	103
N#C/C(=C(/N)SC1C=CC=CC1)c1cccc(C(O)c2ccncc2)c1 (stereo not drawn)	87.2
O=C(O)/C=C/c1cc(Br)c(Br)c(Br)c1Br	102
c1cc(-c2cnn3cc(-c4ccc(OCCN5CCCCC5)cc4)cnc23)ccn1	86.8
FC(F)(F)c1ccc(/C=C/c2nc(COc3ccc(CCCCn4ccnn4)cc3)co2)cc1	97.5
O=c1c(-c2ccc(F)cc2)c(-c2ccncc2)[nH]n1-c1ccc(Cl)cc1	90
O=C(c1ccccc1)c1ccc(N2CCOCC2)cc1O	103
